Experimental data of several laboratories.
Compare with care: the assays were run in different laboratories. Numbers after ± are the reported error. In brackets after ≈: the same amount, converted by molar mass.

Compound | organism | test | test system | conditions | how to read | measurement | result
CC[C@H](C)[C@H](NC(=O)[C@H](CCCCN)NC(=O)[C@H](CCCCN)NC(=O)[C@H](CC(C)C)NC(=O)[C@H](CCCCN)NC(=O)[C@H](CCC(=O)O)NC(=O)[C@H](CCCCN)NC(=O)[C@@H](NC(=O)[C@H](CCCCN)NC(=O)[C@H](CC(N)=O)NC(=O)[C@H](CCCNC(=N)N)NC(=O)[C@H](Cc1ccccc1)NC(=O)[C@H](CCCCN)NC(=O)[C@H](CCCNC(=N)N)NC(=O)[C@H](CC(C)C)NC(=O)[C@H](CCCNC(=N)N)NC(=O)[C@H](CCCCN)NC(=O)[C@H](CCCNC(=N)N)NC(=O)[C@@H](N)CC(C)C)[C@@H](C)CC)C(=O)NCC(=O)N[C@@H](CCC(N)=O)C(=O)N[C@@H](CCCCN)C(=O)N[C@H](C(=O)N[C@@H](CCC(N)=O)C(=O)NCC(=O)N[C@@H](Cc1ccccc1)C(=O)N[C@H](C(=O)N1CCC[C@H]1C(=O)N[C@@H](CCCCN)C(=O)N[C@@H](CC(C)C)C(=O)O)C(C)C)[C@@H](C)CC | Streptococcus mutans | inhibition zone | ATCC 1.2499 | LB agar, overnight | – | lethal concentration | 0.73 µM
C[C@@](O)(C(F)F)[C@H](NC(=O)c1ccc(C#CC#CC2CC2)cc1)C(=O)NO | Enterobacteriaceae | – | ESBL, carbapenemase positive | – | – | MIC90 | 0.125 µg/mL (≈ 0.332 µM)
O=C(Cn1ccc(=O)c2ccccc21)N/N=C/c1cc(Br)c(O)c(Br)c1 | Sclerotinia sclerotiorum | microbial growth | – | 50 µg/mL | – | inhibition | 19.5%
Nc1ncnc2c1c(Cl)cn2[C@@H]1O[C@H](CO)[C@@H](O)[C@H]1O | Trypanosoma congolense | parasite growth, resazurin | 6C3 diminazene-resistant | 48 h plus 24 h resazurin | – | EC50 | 750 ± 140 nM
C=CC(C)(C)c1c(O)cc2c(c1O)C(=O)CC(c1ccccc1)O2 (centres unmarked) | Trypanosoma congolense | resazurin viability | diminazene-resistant clone 6C3 | – | relative to: 6C3 over IL3000 | resistance factor | 0.86
C[C@@H]1C[C@H](Nc2ccccc2)c2cc(F)ccc2N1C(=O)c1ccc(Cl)cc1 | Aedes albopictus | – | – | 1 µM, 72 h, second-instar larvae | relative to: Abbott-corrected control | mortality | 68 ± 11%
O=[N+]([O-])c1ccc(/C=N/N=C/c2ccc(O)cc2)s1 | Trypanosoma congolense | – | IL3000, mouse | intraperitoneal, 10 mg/kg daily for 7 days, from day 4 post-infection | – | day of death | 9 days post-infection
CCC(C)C(=O)OC1C(C)C(OC)C=COC2(C)Oc3c(C)c(O)c4c(c3C2=O)C2=NC3(CCN(CC(C)C)CC3)NC2=C(NC(=O)C(C)=CC=CC(C)C(O)C(C)C(O)C1C)C4=O (mixture of isomers) | Mycobacteroides abscessus | – | ATCC 19977 | – | relative to: wild type over arr deletion | MIC ratio | 39.3
Nc1ccn(C[C@@H](CO)OCP(=O)(O)OCCCS(=O)(=O)CCCCCCCCCCCCC2CCC2)c(=O)n1 | human gammaherpesvirus 8 | qPCR | BCBL-1 | – | relative to: CC50 over EC50 | selectivity index | 35
Cc1cc(N2CCC(C#N)(C3(C)CC3)C2=O)cc(C(=O)NCc2cc(F)cc(-c3cnn(C)c3)c2)n1 (racemic) | Plasmodium falciparum | – | – | concentration not given | – | day of recrudescence | 18 days
CC(=O)OC[C@H]1O[C@@H]([Se][Se][C@@H]2O[C@H](COC(C)=O)[C@@H](OC(C)=O)[C@H](OC(C)=O)[C@H]2OC(C)=O)[C@H](OC(C)=O)[C@@H](OC(C)=O)[C@@H]1OC(C)=O | Trypanosoma brucei | parasite growth, flow cytometry | – | 5 µM, 24 h | – | viability | 2.7%
Oc1ccc(/C=C/c2ccc(O)cc2)cc1 | Streptococcus mutans | growth | – | – | – | MIC50 | 854 ± 58 µM
COC(=O)C1=CO[C@@H](C)[C@@H]2Cn3ccc4c5ccccc5nc-4c3C[C@H]12 | Plasmodium falciparum | parasite growth, [3H]-hypoxanthine incorporation | C2B atovaquone-resistant | – | relative to: C2B over 3D7 | resistance index | < 1
CC[C@@H](C)[C@@H](NC(=O)[C@@H](C)NC(=O)[C@@H](CCCCN)NC(=O)[C@@H](CC(C)C)NC(=O)[C@@H](C)NC(=O)[C@H](NC(=O)[C@@H](Cc1c[nH]cn1)NC(=O)[C@@H](CC(C)C)NC(=O)[C@H](NC(=O)[C@H](NC(=O)[C@@H](CCCCN)NC(=O)[C@@H](CCCCN)NC(=O)[C@@H](C)NC(=O)[C@@H](CO)NC(=O)[C@@H](CCCCN)NC(=O)[C@@H](Cc1ccccc1)NC(=O)[C@H](NC(=O)[C@@H](CCCCN)NC(=O)[C@@H](CC(C)C)NC(=O)[C@@H](Cc1ccccc1)NC(=O)[C@@H](CO)NC(=O)[C@@H](CCCCN)NC(=O)[C@@H](Cc1c[nH]c2ccccc12)NC(=O)[C@@H](CCCCN)NC(C)=O)[C@H](C)O)[C@H](C)O)C(C)C)[C@H](C)O)C(=O)N[C@H](CO)C(=O)N[C@H](CO)C(N)=O | Rhizopus microsporus | – | clinical isolate | 48 h, 30 °C | – | MIC90 | 12.5 µg/mL (≈ 4.18 µM)
CCCCCCCCCC(=O)OCC1OC(n2cc(C)c(=O)[nH]c2=O)CC1N(C)C (centres unmarked) | Sindbis virus | viral replication | Vero | – | – | EC50 | > 230 nM
C[C@@H]1C[C@H](Nc2ccccc2)c2cc(F)ccc2N1C(=O)c1ccc(F)cc1 | Aedes albopictus | – | second-instar larvae | 72 h | – | LC50 | 2090 nM
COc1ccccc1-c1n[nH]c2nc(N[C@H]3CC[C@H](NS(=O)(=O)CC(C)C)CC3)ncc12 | Leishmania donovani | – | LdBOB CRK12 G572D + CYC9 overexpressing, promastigotes | – | – | EC50 | 4.6 ± 0.05 nM
CCCCCCCCC1=C(CCCCCCCC(=O)O)C1 | Toxoplasma gondii | – | Vero, RH | – | relative to: CC50 over EC50 | selectivity index | 5.9

Compound | organism | test | test system | conditions | how to read | measurement | result
O=C(Nc1ccccc1Nc1ccccc1)c1cccnc1Cl | Sclerotinia sclerotiorum | microbial growth | – | 50 µg/mL | – | inhibition | 0%
CC[C@@H](C)[C@@H](NC(=O)[C@@H](C)NC(=O)[C@@H](CCCCN)NC(=O)[C@@H](CC(C)C)NC(=O)[C@@H](C)NC(=O)[C@H](NC(=O)[C@@H](Cc1c[nH]cn1)NC(=O)[C@@H](CC(C)C)NC(=O)[C@H](NC(=O)[C@H](NC(=O)[C@@H](CCCCN)NC(=O)[C@@H](CCCCN)NC(=O)[C@@H](C)NC(=O)[C@@H](CO)NC(=O)[C@@H](CCCCN)NC(=O)[C@@H](Cc1ccccc1)NC(=O)[C@H](NC(=O)[C@@H](CCCCN)NC(=O)[C@@H](CC(C)C)NC(=O)[C@@H](Cc1ccccc1)NC(=O)[C@@H](CO)NC(=O)[C@@H](CCCCN)NC(=O)[C@@H](Cc1c[nH]c2ccccc12)NC(=O)[C@@H](CCCCN)NC(C)=O)[C@H](C)O)[C@H](C)O)C(C)C)[C@H](C)O)C(=O)N[C@H](CO)C(=O)N[C@H](CO)C(N)=O | Acinetobacter baumannii | – | 11 isolates | – | – | MIC geometric mean | 1.1 µM (≈ 3.29 µg/mL)
CC(C)C[C@H](NC(=O)[C@H](CO)NC(=O)[C@H](Cc1c[nH]c2ccccc12)NC(=O)[C@H](Cc1c[nH]c2ccccc12)NC(=O)[C@H](CC(=O)O)NC(=O)[C@H](CC(C)C)NC(=O)CN)C(=O)O | Streptococcus mutans | crystal violet | UA159 | 2 µM, 24 h, with: CSP-18 15 nM | relative to: untreated | biofilm formation | no effect
CC[C@H](C)[C@H](N)C1=N[C@H](C(=O)N[C@@H](CC(C)C)C(=O)N[C@H](CCC(=O)O)C(=O)N[C@H](C(=O)N[C@H]2CCCCNC(=O)[C@H](CC(N)=O)NC(=O)[C@@H](CC(=O)O)NC(=O)[C@H](Cc3c[nH]cn3)NC(=O)[C@@H](Cc3ccccc3)NC(=O)[C@H]([C@@H](C)CC)NC(=O)[C@@H](CCCN)NC2=O)[C@@H](C)CC)CS1 | Enterococcus faecium | – | vanA clinical isolates | with: ZnSO4 0.3 mM | – | MIC50 | 8 µg/mL
NNC(=O)/C=C/c1ccc(N)cc1 | Aedes aegypti | larvicidal activity | third instar larvae | 24 h | – | LC90 | 306 ppm
CON(C(=O)c1cn(C)nc1C(F)F)C(C)Cc1c(Cl)cc(Cl)cc1Cl (centres unmarked) | Sclerotinia sclerotiorum | microbial growth | – | 1.56 µg/mL | – | inhibition | 75.7%
CC[P+](CC)(CC)[Au-][S][C@@H]1O[C@H](COC(C)=O)[C@@H](OC(C)=O)[C@H](OC(C)=O)[C@H]1NC(C)=O | Enterococcus faecium | – | ATCC 700221 | concentration not given | relative to: auranofin | fold activity enhancement | 2 to 4
COc1ccc(Br)cc1/C=N/NC(=O)Cn1ccc(=O)c2ccccc21 | Tobacco mosaic virus | viral infectivity, in vivo plant | – | 100 µg/mL | – | inactivation activity | 0%
C[C@@H]1C[C@H](Nc2ccccc2)c2cc(F)ccc2N1C(=O)c1ccc(Br)cc1 | Aedes albopictus | – | – | 1 µM, 72 h, second-instar larvae | relative to: Abbott-corrected control | mortality | 80 ± 1%
CS(=O)(=O)c1ccc(/C=N/NC(=O)Cn2ccc(=O)c3ccccc32)cc1 | Phytophthora capsici | microbial growth | – | 50 µg/mL | – | inhibition | 31%
C[C@@H]1C[C@H](Nc2ccccc2)c2cc(F)ccc2N1C(=O)c1ccc(C(F)(F)F)cc1 | Aedes albopictus | – | – | 1 µM, 72 h, second-instar larvae | relative to: Abbott-corrected control | mortality | 33 ± 20%
OC[C@H]1O[C@@H]([Se]Cc2cccc(C[Se][C@@H]3O[C@H](CO)[C@H](O)[C@H](O)[C@H]3O)c2)[C@H](O)[C@@H](O)[C@H]1O | Trypanosoma brucei | parasite growth, flow cytometry | – | 5 µM, 24 h | – | viability | 99.6%
C[C@@H]1C[C@H](Nc2ccccc2)c2cc(F)ccc2N1C(=O)c1ccc(C#N)c(Cl)c1 | Aedes albopictus | – | – | 1 µM, 72 h, second-instar larvae | relative to: Abbott-corrected control | mortality | 70 ± 15%
CC(=O)CCC1C(=O)NC(C(C)C)C(=O)NC(Cc2cccc(O)c2)C(=O)N2CCCC(N2)C(=O)OC(C(C)=CC=CC(=O)N2CCCCO2)CC=CC=CC(O)C(C)C1O (centres unmarked) | hepatitis B virus | – | HBV DNA transfected cells | 2 µM, day 3 | relative to: untreated | HBsAg level | 9.6%
CC[C@H](C)[C@H](NC(=O)[C@H](CO)NC(=O)[C@H](CO)NC(=O)[C@H](Cc1ccccc1)NC(=O)CN)C(=O)N[C@@H](Cc1ccccc1)C(=O)N[C@@H](CCCNC(=N)N)C(N)=O | Escherichia coli | – | ATCC 8739 | 10% FBS | – | MBC | > 128 µM
CC[C@H](C)[C@H](NC(=O)[C@H](CCCNC(=N)N)NC(=O)[C@@H]1CCCN1C(=O)[C@@H](NC(=O)[C@H](CO)NC(=O)[C@H](CCCCN)NC(=O)[C@H](CO)NC(=O)[C@H](CC(C)C)NC(=O)[C@H](CCCCN)NC(=O)[C@H](CC(C)C)NC(=O)[C@H](Cc1ccccc1)NC(=O)[C@H](Cc1ccccc1)NC(=O)CNC(=O)[C@@H]1CCCN1C(=O)[C@@H](NC(=O)[C@H](CCC(=O)O)NC(=O)[C@@H](N)CC(=O)O)[C@@H](C)O)C(C)C)C(N)=O | Aedes aegypti | – | pharate pupae | injection, 10 fmol, about 12 h before ecdysis | – | animals showing premature ecdysis | ~20%
Nc1ccn(C[C@@H](CO)OCP(=O)(O)OCCCS(=O)(=O)CCCCCCCCCCCCCC2CCC2)c(=O)n1 | human gammaherpesvirus 8 | qPCR | BCBL-1 | – | relative to: CC50 over EC50 | selectivity index | 89

For quick reference, copied from above:
Compound | organism | test | test system | conditions | how to read | measurement | result
C[C@@](O)(C(F)F)[C@H](NC(=O)c1ccc(C#CC#CC2CC2)cc1)C(=O)NO | Enterobacteriaceae | – | ESBL, carbapenemase positive | – | – | MIC90 | 0.125 µg/mL (≈ 0.332 µM)
CC(=O)OC[C@H]1O[C@@H]([Se][Se][C@@H]2O[C@H](COC(C)=O)[C@@H](OC(C)=O)[C@H](OC(C)=O)[C@H]2OC(C)=O)[C@H](OC(C)=O)[C@@H](OC(C)=O)[C@@H]1OC(C)=O | Trypanosoma brucei | parasite growth, flow cytometry | – | 5 µM, 24 h | – | viability | 2.7%
